Published values gathered from unrelated publications.
Every numbered part comes from another study and shows a few of its results, in no order.
Chain of UniProt Q15349 (whole entry, looked up): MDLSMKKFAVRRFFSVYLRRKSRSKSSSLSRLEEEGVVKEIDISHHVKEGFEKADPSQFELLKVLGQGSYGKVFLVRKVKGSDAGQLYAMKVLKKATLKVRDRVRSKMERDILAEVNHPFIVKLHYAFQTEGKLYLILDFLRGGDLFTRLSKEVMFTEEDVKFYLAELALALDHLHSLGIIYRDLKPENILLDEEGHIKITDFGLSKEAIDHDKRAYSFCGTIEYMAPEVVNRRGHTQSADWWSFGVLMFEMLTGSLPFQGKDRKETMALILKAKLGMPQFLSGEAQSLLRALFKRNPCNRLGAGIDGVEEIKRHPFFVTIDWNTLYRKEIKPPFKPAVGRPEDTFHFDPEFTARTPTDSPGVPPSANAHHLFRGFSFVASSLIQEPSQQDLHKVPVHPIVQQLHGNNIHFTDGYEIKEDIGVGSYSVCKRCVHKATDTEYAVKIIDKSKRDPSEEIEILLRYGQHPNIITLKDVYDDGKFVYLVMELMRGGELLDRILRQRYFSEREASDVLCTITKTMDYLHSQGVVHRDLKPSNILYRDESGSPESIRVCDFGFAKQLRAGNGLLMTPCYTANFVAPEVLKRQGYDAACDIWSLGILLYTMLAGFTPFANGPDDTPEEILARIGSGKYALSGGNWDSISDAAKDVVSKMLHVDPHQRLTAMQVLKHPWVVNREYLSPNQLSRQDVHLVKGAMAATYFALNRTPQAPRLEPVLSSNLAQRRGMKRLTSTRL
Chain of UniProt O75582 (whole entry, looked up): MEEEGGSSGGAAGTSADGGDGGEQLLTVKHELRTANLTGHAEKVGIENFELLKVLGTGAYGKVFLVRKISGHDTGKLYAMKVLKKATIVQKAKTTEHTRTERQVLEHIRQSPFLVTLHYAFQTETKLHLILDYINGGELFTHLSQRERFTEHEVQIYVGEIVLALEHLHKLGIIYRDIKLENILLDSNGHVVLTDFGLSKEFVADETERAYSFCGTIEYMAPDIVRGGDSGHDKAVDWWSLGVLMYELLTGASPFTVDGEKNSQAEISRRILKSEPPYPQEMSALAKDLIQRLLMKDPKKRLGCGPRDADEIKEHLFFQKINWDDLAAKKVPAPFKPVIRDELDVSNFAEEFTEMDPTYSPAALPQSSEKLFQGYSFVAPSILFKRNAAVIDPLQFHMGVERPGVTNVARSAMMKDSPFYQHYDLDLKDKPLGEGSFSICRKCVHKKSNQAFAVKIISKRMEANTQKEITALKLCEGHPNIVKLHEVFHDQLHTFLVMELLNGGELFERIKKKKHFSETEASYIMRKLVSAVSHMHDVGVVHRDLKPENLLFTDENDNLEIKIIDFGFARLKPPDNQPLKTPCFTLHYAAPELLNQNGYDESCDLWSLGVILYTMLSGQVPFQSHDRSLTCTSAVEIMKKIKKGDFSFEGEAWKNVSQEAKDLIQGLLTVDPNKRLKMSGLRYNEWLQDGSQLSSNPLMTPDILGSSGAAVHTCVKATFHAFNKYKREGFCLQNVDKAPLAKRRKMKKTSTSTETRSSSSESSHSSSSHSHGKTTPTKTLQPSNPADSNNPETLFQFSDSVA
Chain of UniProt P51955 (whole entry, looked up): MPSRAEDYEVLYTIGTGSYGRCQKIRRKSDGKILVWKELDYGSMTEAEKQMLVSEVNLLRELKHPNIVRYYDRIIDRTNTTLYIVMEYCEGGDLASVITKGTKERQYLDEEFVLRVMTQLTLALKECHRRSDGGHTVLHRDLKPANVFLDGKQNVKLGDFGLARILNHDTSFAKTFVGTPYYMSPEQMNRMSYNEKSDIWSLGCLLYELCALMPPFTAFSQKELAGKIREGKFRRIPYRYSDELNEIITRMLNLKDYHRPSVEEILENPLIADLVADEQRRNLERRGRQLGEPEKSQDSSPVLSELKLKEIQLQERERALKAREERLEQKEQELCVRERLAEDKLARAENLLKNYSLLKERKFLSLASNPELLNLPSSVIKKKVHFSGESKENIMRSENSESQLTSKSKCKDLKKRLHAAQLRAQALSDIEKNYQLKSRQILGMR
Chain of UniProt P17948 (whole entry, looked up): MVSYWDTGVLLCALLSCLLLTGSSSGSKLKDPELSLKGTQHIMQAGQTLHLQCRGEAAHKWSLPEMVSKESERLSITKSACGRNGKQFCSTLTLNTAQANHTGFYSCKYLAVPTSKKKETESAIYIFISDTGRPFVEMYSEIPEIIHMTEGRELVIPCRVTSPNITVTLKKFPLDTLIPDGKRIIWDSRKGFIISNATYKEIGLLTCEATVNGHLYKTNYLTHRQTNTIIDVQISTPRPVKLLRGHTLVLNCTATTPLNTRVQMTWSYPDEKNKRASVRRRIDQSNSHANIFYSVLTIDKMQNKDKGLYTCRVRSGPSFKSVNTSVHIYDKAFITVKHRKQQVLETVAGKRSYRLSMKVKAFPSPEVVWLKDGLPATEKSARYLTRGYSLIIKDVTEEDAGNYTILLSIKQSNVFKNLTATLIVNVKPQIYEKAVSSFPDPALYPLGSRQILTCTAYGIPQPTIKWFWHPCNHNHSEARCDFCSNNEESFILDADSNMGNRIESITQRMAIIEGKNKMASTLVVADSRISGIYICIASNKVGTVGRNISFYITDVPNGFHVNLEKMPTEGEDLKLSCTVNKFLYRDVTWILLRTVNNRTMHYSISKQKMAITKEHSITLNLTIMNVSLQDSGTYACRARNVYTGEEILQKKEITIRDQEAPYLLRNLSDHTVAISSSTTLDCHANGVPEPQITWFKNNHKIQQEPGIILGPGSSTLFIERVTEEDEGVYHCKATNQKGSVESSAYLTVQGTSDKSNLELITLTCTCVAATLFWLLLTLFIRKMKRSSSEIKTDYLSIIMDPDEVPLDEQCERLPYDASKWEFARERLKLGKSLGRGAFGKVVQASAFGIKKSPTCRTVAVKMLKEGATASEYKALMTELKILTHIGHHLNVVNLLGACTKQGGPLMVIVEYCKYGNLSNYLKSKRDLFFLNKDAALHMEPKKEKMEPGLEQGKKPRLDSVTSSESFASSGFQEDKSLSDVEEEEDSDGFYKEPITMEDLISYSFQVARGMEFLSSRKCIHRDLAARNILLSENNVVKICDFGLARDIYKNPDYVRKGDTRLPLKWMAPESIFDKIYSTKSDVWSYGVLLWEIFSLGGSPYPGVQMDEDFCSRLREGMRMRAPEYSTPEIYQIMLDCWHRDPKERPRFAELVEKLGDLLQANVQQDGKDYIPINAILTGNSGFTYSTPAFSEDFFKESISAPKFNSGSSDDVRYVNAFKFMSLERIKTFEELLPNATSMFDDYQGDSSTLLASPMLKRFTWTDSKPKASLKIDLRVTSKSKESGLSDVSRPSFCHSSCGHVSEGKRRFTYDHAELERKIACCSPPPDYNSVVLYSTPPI
Chain of UniProt P53778 (whole entry, looked up): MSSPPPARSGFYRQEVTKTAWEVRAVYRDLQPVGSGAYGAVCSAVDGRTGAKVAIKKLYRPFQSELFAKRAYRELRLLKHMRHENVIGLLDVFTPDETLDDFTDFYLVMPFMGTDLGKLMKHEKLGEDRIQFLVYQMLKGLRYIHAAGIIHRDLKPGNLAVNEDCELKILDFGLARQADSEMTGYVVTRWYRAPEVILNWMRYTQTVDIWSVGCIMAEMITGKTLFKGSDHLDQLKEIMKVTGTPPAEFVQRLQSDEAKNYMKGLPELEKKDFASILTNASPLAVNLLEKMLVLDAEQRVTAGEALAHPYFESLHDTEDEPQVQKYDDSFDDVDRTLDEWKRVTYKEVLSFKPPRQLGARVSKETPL
Chain of UniProt P23443 (whole entry, looked up): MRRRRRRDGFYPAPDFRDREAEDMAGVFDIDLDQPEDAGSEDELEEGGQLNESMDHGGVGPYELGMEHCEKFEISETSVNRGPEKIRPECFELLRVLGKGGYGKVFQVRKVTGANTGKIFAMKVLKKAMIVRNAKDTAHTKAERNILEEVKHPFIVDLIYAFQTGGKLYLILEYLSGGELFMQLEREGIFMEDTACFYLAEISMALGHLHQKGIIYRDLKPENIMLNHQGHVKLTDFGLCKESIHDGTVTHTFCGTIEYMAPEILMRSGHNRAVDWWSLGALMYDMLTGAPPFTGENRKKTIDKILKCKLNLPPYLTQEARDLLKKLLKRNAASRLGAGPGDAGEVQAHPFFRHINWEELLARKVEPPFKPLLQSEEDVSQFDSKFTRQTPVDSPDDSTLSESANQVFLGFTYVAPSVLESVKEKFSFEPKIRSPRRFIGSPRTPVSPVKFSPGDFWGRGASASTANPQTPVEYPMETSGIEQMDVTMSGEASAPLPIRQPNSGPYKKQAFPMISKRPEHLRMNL
Chain of UniProt O96017 (whole entry, looked up): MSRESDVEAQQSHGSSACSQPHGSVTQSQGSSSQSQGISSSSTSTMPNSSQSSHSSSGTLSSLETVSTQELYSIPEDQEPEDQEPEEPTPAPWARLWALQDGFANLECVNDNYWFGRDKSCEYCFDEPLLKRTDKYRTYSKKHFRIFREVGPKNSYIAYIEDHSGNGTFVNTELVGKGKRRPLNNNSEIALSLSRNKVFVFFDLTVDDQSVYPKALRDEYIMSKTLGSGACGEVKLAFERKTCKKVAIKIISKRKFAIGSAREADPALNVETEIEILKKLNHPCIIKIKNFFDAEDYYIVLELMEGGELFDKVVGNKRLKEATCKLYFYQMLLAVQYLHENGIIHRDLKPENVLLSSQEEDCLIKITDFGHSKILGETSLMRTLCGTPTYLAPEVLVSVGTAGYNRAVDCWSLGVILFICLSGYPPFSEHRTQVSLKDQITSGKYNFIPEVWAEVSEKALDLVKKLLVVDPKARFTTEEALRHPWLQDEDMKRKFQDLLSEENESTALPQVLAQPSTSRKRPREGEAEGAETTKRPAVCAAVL

Study 1
Compound: Cc1nc(Nc2ncc(C(=O)Nc3c(C)cccc3Cl)s2)cc(N2CCN(CCO)CC2)n1
Read-out: enzyme activity
Mode: inhibitor
Concentration: 0.5 µM
Relative to: control
target | remaining activity
STE20/SPS1-related proline-alanine-rich protein kinase (STK39, Homo sapiens, UniProt Q9UEW8) | 92.8%
cAMP-dependent protein kinase catalytic subunit alpha (PRKACA, Homo sapiens, UniProt P17612) | 102%
Protein kinase C alpha type (PRKCA, Homo sapiens, UniProt P17252) | 103%
Serine/threonine-protein kinase Nek2 (NEK2, Homo sapiens, UniProt P51955) | 103%
Serine/threonine-protein kinase OSR1 (OXSR1, Homo sapiens, UniProt O95747) | 99.9%
Tyrosine-protein kinase Lyn, isoform B (LYN, Homo sapiens, UniProt P07948) | 1.6%
Calcium/calmodulin-dependent protein kinase kinase 2 (CAMKK2, Homo sapiens, UniProt Q96RR4) | 101%
Calcium/calmodulin-dependent protein kinase type II subunit delta (CAMK2D, Homo sapiens, UniProt Q13557) | 109%
Death-associated protein kinase 1 (DAPK1, Homo sapiens, UniProt P53355) | 122%
Inhibitor of nuclear factor kappa-B kinase subunit beta (IKBKB, Homo sapiens, UniProt O14920) | 94%
Serine/threonine-protein kinase Chk2 (CHEK2, Homo sapiens, UniProt O96017) | 103%

Study 2
SMILES: CC(C)n1cnc(-c2ccc(F)cc2)c1-c1ncc(C(=O)Nc2ccc(N3CCN(C)CC3)cc2)[nH]1
assay | test system | conditions | patients with TEAE
phase 2a trial | patients with idiopathic pulmonary fibrosis | dose not given, allergic conjunctivitis, grade 5, all arms | 0%
phase 2a trial | idiopathic pulmonary fibrosis patients | oral, 30 mg once daily, CK-MB increased, grade 5 | 0%
phase 2a trial | idiopathic pulmonary fibrosis patients | oral, 60 mg once daily, ESR increased, grade 1 | 1%
phase 2a trial | idiopathic pulmonary fibrosis patients | oral, dose not given, CK-MB increased, grade 2, all arms | 0%
phase 2a trial | idiopathic pulmonary fibrosis patients | oral, 60 mg once daily, disc protrusion, grade 2 | 0%
phase 2a trial | idiopathic pulmonary fibrosis patients | oral, 60 mg once daily, CK-MB increased, grade 3 | 0%
item: soft tissue infection | idiopathic pulmonary fibrosis patients | 30 mg once daily | 0%
phase 2a trial | idiopathic pulmonary fibrosis patients | oral, 60 mg once daily, blood/lymphatic disorders, grade 1 | 3%
phase 2a trial | idiopathic pulmonary fibrosis patients | oral, 60 mg once daily, urine red cells, grade 4 | 0%
item: free thyroxine decreased | idiopathic pulmonary fibrosis patients | 30 mg once daily | 0%
phase 2a trial | patients with idiopathic pulmonary fibrosis | 60 mg once daily, nervous system disorders SOC, grade 3 | 0%
phase 2a trial | idiopathic pulmonary fibrosis patients | oral, 30 mg once daily, CK-MB increased, grade 2 | 0%
phase 2a trial | idiopathic pulmonary fibrosis patients | oral, 30 mg once daily, disc protrusion, grade 1 | 0%
phase 2a trial | patients with idiopathic pulmonary fibrosis | 60 mg once daily, eye swelling, grade 5 | 0%
item: lower respiratory tract infection | idiopathic pulmonary fibrosis patients | 60 mg once daily | 0%
item: hypothyroidism grade 5 | idiopathic pulmonary fibrosis patients | 60 mg once daily | 0%
phase 2a trial | patients with idiopathic pulmonary fibrosis | 30 mg once daily, renal and urinary disorders SOC, grade 4 | 0%
phase 2a trial | idiopathic pulmonary fibrosis patients | oral, dose not given, LDL increased, grade 1, all arms | 1%

Study 3
SMILES: C[C@@]1(Cc2ccc(C#N)cc2)C(=O)N(c2cc(Cl)cc(Cl)c2)c2ncc(C(=O)NC3(c4nc(C5CCC5)no4)CC3)n21
Read-out: cell-free assay
Technique: competition with immobilised ligand
Concentration: 1 µM
target | remaining binding
Phosphorylase b kinase gamma catalytic chain, liver/testis isoform (PHKG2, Homo sapiens, UniProt P15735) | 100%
Epidermal growth factor receptor (EGFR, Homo sapiens, UniProt P00533) | 100%
Serine/threonine-protein kinase tousled-like 1 (TLK1, Homo sapiens, UniProt Q9UKI8) | 100%
G protein-coupled receptor kinase 3 (GRK3, Homo sapiens, UniProt P35626) | 100%
Ribosomal protein S6 kinase alpha-5, N-terminal kinase domain (RPS6KA5, Homo sapiens, UniProt O75582) | 100%
Protein kinase C eta type (PRKCH, Homo sapiens, UniProt P24723) | 100%
Myosin-IIIa (MYO3A, Homo sapiens, UniProt Q8NEV4) | 100%
Mitogen-activated protein kinase 12 (MAPK12, Homo sapiens, UniProt P53778) | 100%
Serine/threonine-protein kinase SIK3 (SIK3, Homo sapiens, UniProt Q9Y2K2) | 98%
Microtubule-associated serine/threonine-protein kinase 1 (MAST1, Homo sapiens, UniProt Q9Y2H9) | 100%
Hormonally up-regulated neu tumor-associated kinase (HUNK, Homo sapiens, UniProt P57058) | 100%
Ribosomal protein S6 kinase beta-1 (RPS6KB1, Homo sapiens, UniProt P23443) | 100%
5'-AMP-activated protein kinase catalytic subunit alpha-2 (PRKAA2, Homo sapiens, UniProt P54646) | 100%
Tyrosine-protein kinase receptor UFO (AXL, Homo sapiens, UniProt P30530) | 100%

Study 4
SMILES: Cc1ccc(NC(=O)c2ccnc(C(F)(F)F)c2)cc1-c1cc(OCCO)nc(N2CCOCC2)c1
Read-out: binding
Concentration: 1 µM
target | assay | remaining binding
Ribosomal protein S6 kinase alpha-2, N-terminal kinase domain (RPS6KA2, Homo sapiens, UniProt Q15349) | competition with immobilised ligand | 100%
Tyrosine-protein kinase receptor Tie-1 (TIE1, Homo sapiens, UniProt P35590) | competition with immobilised ligand | 33%
Ephrin type-A receptor 6 (EPHA6, Homo sapiens, UniProt Q9UF33) | competition with immobilised ligand | 91%
Receptor-interacting serine/threonine-protein kinase 1 (RIPK1, Homo sapiens, UniProt Q13546) |  | 100%
Dual specificity tyrosine-phosphorylation-regulated kinase 1A (DYRK1A, Homo sapiens, UniProt Q13627) |  | 100%
Vascular endothelial growth factor receptor 1 (FLT1, Homo sapiens, UniProt P17948) | competition with immobilised ligand | 89%
Phosphatidylinositol 4-kinase beta (PI4KB, Homo sapiens, UniProt Q9UBF8) |  | 100%
Cyclin-dependent kinase 15 (CDK15, Homo sapiens, UniProt Q96Q40) | competition with immobilised ligand | 100%
Ribosomal protein S6 kinase alpha-6, C-terminal kinase domain (RPS6KA6, Homo sapiens, UniProt Q9UK32) | competition with immobilised ligand | 100%

Repeated from above (study 4):
target | assay | remaining binding
Ribosomal protein S6 kinase alpha-2, N-terminal kinase domain (RPS6KA2, Homo sapiens, UniProt Q15349) | competition with immobilised ligand | 100%
Tyrosine-protein kinase receptor Tie-1 (TIE1, Homo sapiens, UniProt P35590) | competition with immobilised ligand | 33%
Ephrin type-A receptor 6 (EPHA6, Homo sapiens, UniProt Q9UF33) | competition with immobilised ligand | 91%
Receptor-interacting serine/threonine-protein kinase 1 (RIPK1, Homo sapiens, UniProt Q13546) |  | 100%
Dual specificity tyrosine-phosphorylation-regulated kinase 1A (DYRK1A, Homo sapiens, UniProt Q13627) |  | 100%
Vascular endothelial growth factor receptor 1 (FLT1, Homo sapiens, UniProt P17948) | competition with immobilised ligand | 89%
Phosphatidylinositol 4-kinase beta (PI4KB, Homo sapiens, UniProt Q9UBF8) |  | 100%
